# Measurements collected from several papers.
# Numbers after ± are the reported error.
SMILES,assay,system,setting,scale,endpoint,result
CC[C@H](C)[C@H](NC(=O)[C@H](Cc1ccccc1)NC(=O)[C@H](CC(=O)O)NC(=O)[C@H](CCCNC(=N)N)NC(=O)[C@H](C)NC(=O)[C@H](C)NC(=O)[C@H](CC(C)C)NC(=O)[C@H](CC(N)=O)NC(=O)[C@H](CC(=O)O)NC(=O)[C@H](CC(C)C)NC(=O)[C@@H](NC(=O)[C@@H](NC(=O)[C@H](CC(N)=O)NC(=O)[C@H](CCSC)NC(=O)[C@H](CCC(=O)O)NC(=O)[C@H](CC(=O)O)NC(=O)[C@H](CO)NC(=O)[C@H](Cc1ccccc1)NC(=O)[C@H](CO)NC(=O)CNC(=O)[C@H](CC(=O)O)NC(=O)CNC(=O)[C@@H](N)Cc1c[nH]cn1)[C@@H](C)O)[C@@H](C)CC)C(=O)N[C@@H](CC(N)=O)C(=O)N[C@@H](Cc1c[nH]c2ccccc12)C(=O)N[C@@H](CC(C)C)C(=O)N[C@H](C(=O)N[C@@H](CCC(N)=O)C(=O)N[C@H](C(=O)N[C@@H](CCCCN)C(=O)N[C@H](C(=O)N[C@H](C(=O)N[C@@H](CC(=O)O)C(=O)O)[C@@H](C)O)[C@@H](C)CC)[C@@H](C)O)[C@@H](C)CC,population PK sensitivity analysis,human,maturation function,,typical absorption rate constant,0.33 h⁻¹
COc1cc(C(=O)O)ccc1OS(=O)(=O)O,,human plasma,mean,,plasma concentration,463 nM
C[C@H](NC(=O)/C(C#N)=C/c1cccc(Br)n1)c1ccccc1,LC-MS/MS,"patients, plasma","oral, 1 mg/kg, cycle 1 day 1",,AUC(all),53 ng·h/mL
CCN1/C(=C/C(C)=O)Sc2ccc(F)cc21,,cynomolgus monkey,"oral, 30 mg/kg, 1 h post-dose",baseline: pre-dose,QTc interval change,99.7 ± 2%
CCCCC[C@H](O)CC[C@@H]1[C@H]2Cc3cccc(OCC(=O)O)c3C[C@H]2C[C@H]1O,LC-MS/MS,"Japanese PAH patients, plasma","inhaled, 54 µg, no background PAH therapy",,geometric mean AUC(0-inf),0.43 ng·h/mL
O=C(O)CCC(=O)O.[2H]C([2H])([2H])Oc1cc(C)c2[nH]ccc2c1CN1CC[C@@H](C2CC2)C[C@H]1c1ccc(C(=O)O)cc1,,healthy Chinese subjects,"50 mg twice daily, multiple ascending dose",,TEAE elevated monocyte,0%
Cc1c2oc3c(C)ccc(C(=O)N[C@@H]4C(=O)N[C@H](C(C)C)C(=O)N5CCC[C@H]5C(=O)N(C)CC(=O)N(C)[C@@H](C(C)C)C(=O)O[C@@H]4C)c3nc-2c(C(=O)N[C@@H]2C(=O)N[C@H](C(C)C)C(=O)N3CCC[C@H]3C(=O)N(C)CC(=O)N(C)[C@@H](C(C)C)C(=O)O[C@@H]2C)c(N)c1=O,LC-MS,"children with cancer, plasma","dose not given, 2 h",,minimum plasma concentration,1.4 µg/L
O=c1c(O)c(-c2cc(O)c(O)c(O)c2)oc2cc(O)cc(O)c12,,human plasma,"mean, both sexes",,plasma concentration,841 nM
CCc1cc(C(=O)NC)c2nccc(N3CCc4c(cc(Cn5ccnc5)cc4-c4cn(C)nc4C(F)(F)F)C3=O)c2c1,,Sprague Dawley rat,"oral, 50 mg/kg once daily, 7 days",,lung weight,1.32 ± 0.069 g
C=CC[C@@H]1/C=C(\C)C[C@H](C)C[C@H](OC)[C@H]2O[C@@](O)(C(=O)C(=O)N3CCCC[C@H]3C(=O)O[C@H](/C(C)=C/[C@@H]3CC[C@@H](O)[C@H](OC)C3)[C@H](C)[C@@H](O)CC1=O)[C@H](C)C[C@@H]2OC,,"Wistar Kyoto rat, male, plasma","ip, 0.5 mg/kg/day, day 28, at sacrifice",,plasma Cl- level,99 ± 2 mmol/L
O=C(N[C@H](CO)[C@H](O)c1ccc([N+](=O)[O-])cc1)C(Cl)Cl,starch gel membrane permeability,Gram-negative envelope surrogate,"200 µM, 10 min, pH 7.4",,amount permeated,1.13 nmol
OC[C@H](Cc1cccc(O)c1)[C@H](CO)Cc1cccc(O)c1,,human plasma,"mean, both sexes",,plasma concentration,830 nM
CCOc1c([C@H](C)n2nc(C)c3c(N)ncnc32)cc(Cl)c(F)c1[C@@H]1CNC(=O)C1,,"patients with B-cell malignancies, plasma","oral, 20 mg, day 15, all cohorts, monotherapy",,half-life,9.6 ± 3 h
O=C(/C=C/c1ccc(O)c(O)c1)O[C@H]1[C@H](O)C[C@](O)(C(=O)O)C[C@H]1O,,human plasma,median,,plasma concentration,23.5 nM
Cc1cccc(CNC(=O)c2cn(CCNC(=O)c3ccccc3Sc3c([N+](=O)[O-])ncn3C)c3cc4c(cc3c2=O)OC(F)(F)O4)n1,,"Sprague-Dawley rat, male, plasma","intramuscular, 10 mg/kg of parent drug",,Tmax,4.98 min
O=C1CCC(N2Cc3cc(CO)c(F)cc3C2=O)C(=O)N1 (stereo not shown),,"cynomolgus monkey, male","oral, 0.3 mg/kg parent drug, 1 h",,plasma concentration,0.83 ± 0.26 ng/mL
COc1cc(CCC(=O)O)ccc1O[C@@H]1O[C@H](C(=O)O)[C@@H](O)[C@H](O)[C@H]1O,,human plasma,median,,plasma concentration,297 nM
C=CC(=O)Nc1cc(Nc2nccc(-c3cn(C4CC4)c4ccccc34)n2)c(OC)cc1N(C)CCN(C)C,,"BALB/c nude mouse, LU0387 xenograft, blood","oral, 40 mg/kg",,P-LCR percentage,7.8 ± 0.943%
N#Cc1ccc2c(c1)[C@H]1CCCN(C(=O)c3ccc4[nH]cnc4c3)[C@H]1C2,,human,"240 mg, day 7",baseline: baseline,ACTH level change,-0.8 pmol/L
C[C@@H](O)[C@H]1C(=O)N2C(C(=O)O)=C(SCCN=CN)C[C@H]12,starch gel membrane permeability,Gram-negative envelope surrogate,"200 µM, 60 min, pH 7.4",,amount permeated,3.76 nmol
C[C@@H](c1ncncc1F)[C@](O)(Cn1cncn1)c1ccc(F)cc1F,,human,"oral, 200 mg, drug interaction trial",,drug-related TEAE,9.1%
CCn1cc(C(=O)O)c(=O)c2ccc(C)nc21,starch gel membrane permeability,Gram-negative envelope surrogate,"200 µM, 90 min, pH 7.4",,amount permeated,5.71 nmol
CCc1nc(C(N)=O)c(Nc2ccc(N3CCC(N4CCN(C)CC4)CC3)c(OC)c2)nc1NC1CCOCC1,,"Japanese patients, plasma","oral, 120 mg, cycle 1 day 28, multiple doses, median",,AUCtau,13500 ng·h/mL
O=C(/C=C/CCc1ccc(O)cc1)/C=C/c1ccc(O)cc1,,nude mouse MCF7 xenograft,"40 mg/kg, day 0",,body weight,20.1 ± 1.17 g
O=c1ccc2ccc(O)c(O)c2o1,,human plasma,"median, both sexes",,plasma concentration,60.9 nM
OCc1nc2ccc(NCc3ccc(C(F)(F)F)cc3)cc2[nH]1,,"male Balb/c mice, lungs","oral, 10 mg/kg, 6 h",baseline: tissue over plasma,tissue/plasma ratio,4.44 ± 0.2
CC(C)(C)c1ccc(O)c(CN(Cc2cc(C(C)(C)C)ccc2O)C2CCC(NC(N)=O)CC2)c1 (stereo not shown),,"C57BL/6 mouse, male, brain","oral, 10 mg/kg",,elimination rate constant,2.61e-05 s⁻¹
Cc1cc(Nc2cc3ncccc3c(N[C@@H]3C[C@H]4CC[C@@H](C3)N4CCC#N)n2)n[nH]1,,human,"300 mg, day 1",,AUC(0-24),55.7 ng·h/mL
OC[C@H]1O[C@@H](c2ccc(Cl)c(Cc3ccc(O[C@H]4CCOC4)cc3)c2)[C@H](O)[C@@H](O)[C@@H]1O,,"Japanese type 1 diabetes patients, blood","10 mg, day 28",baseline: baseline,change in Triglycerides,-11.3 mg/dL
CO[C@@H]1[C@@H](OC(N)=O)[C@@H](O)[C@H](Oc2ccc3c(O)c(NC(=O)c4ccc(O)c(CC=C(C)C)c4)c(=O)oc3c2C)OC1(C)C,starch gel membrane permeability,Gram-negative envelope surrogate,"200 µM, 60 min, pH 7.4",,amount permeated,1.92 nmol
CN(C(=O)n1cnc(-c2ccc[n+]([O-])c2)c1)[C@H]1CC[C@H](O)CC1,,"Wistar rat, pons","oral, 10 mg/kg/day of BIA 10-2474, 24 h, repeated 5 days",,concentration,9.4 ± 0.1 ng/g
Cc1nc(-c2cnc(NC(C)C)n(C)c2=O)ccc1Oc1ccnc(-c2cnn(C)c2)c1,,"Beagle dog, male, plasma","oral, 3 mg/kg, crossover study, mean",,apparent clearance,7.5 mL/min/kg
CCn1cc(C(=O)N2CCOCC2)c(=O)c2cc(NC3Cc4ccccc4C3)cnc21,,"human, fasted","oral suspension, 15 mg single dose, arithmetic mean",,half-life,3.23 h
O=C(O)CCc1cc(O)cc(O)c1,,human plasma,mean,,plasma concentration,1100 nM
O=C1CCc2ccc(OCCCCN3CCN(c4cccc(Cl)c4Cl)CC3)cc2N1,measured: Xerostomia,"genotyped patients, CYP2D6 ultrarapid metabolizers","dose not given, long-acting oral or depot",,adverse event incidence,0%
CCc1nc(C(N)=O)c(Nc2ccc(N3CCC(N4CCN(C)CC4)CC3)c(OC)c2)nc1NC1CCOCC1,LC-MS/MS,"relapsed/refractory AML patients, plasma","oral, 200 mg once daily, cycle 1 day 15, median, from accumulation ratio",,t1/2,142 h
CC(C)(C(=O)N1CCOc2c(C#N)cncc2C1)C(F)F,measured: Dermatitis,human,"oral, 20 mg once daily, 14 days, multiple ascending dose",,subjects with adverse event,0%
C=CC(=O)N1CCC(c2ccc(C(N)=O)c(-c3ccc(Oc4ccccc4)cc3)n2)CC1,,relapsed/refractory mantle cell lymphoma patients,"oral, 100 mg twice daily, part, CTCAE v4.03",,TEAE rate,50%
CCn1cc(C(=O)O)c(=O)c2cnc(N3CCNCC3)nc21,starch gel membrane permeability,Gram-negative envelope surrogate,"200 µM, 60 min, pH 7.4",,amount permeated,3.68 nmol
CNCc1ccc(-c2[nH]c3cc(F)cc4c3c2CCNC4=O)cc1,measured: Dysgeusia,human patients,"oral, dose not given, all grades, all doses",,patients with adverse event,14.3%
NC1(C(=O)N[C@@H](CCO)c2ccc(Cl)cc2)CCN(c2nc[nH]c3nccc2-3)CC1,,metastatic CRPC patients,"320 mg b.i.d., grade 3 to 4, treatment-related, added: enzalutamide 160 mg daily",,incidence of white blood cell decreased,0%
O=S(=O)(O)Oc1ccc(CCO)cc1,,human plasma,median,,plasma concentration,127 nM
C[C@@H](N)C1CCN(S(=O)(=O)c2cccc3cnccc23)CC1,,healthy volunteers,"75 mg, fasted",,participants with serious TEAEs,0%
O=C(COc1ccc(Cl)cc1)NC12CC(c3nnc([C@H]4C[C@@H](OC(F)(F)F)C4)o3)(C1)C2,,human both sexes,"oral, 100 mg single dose",,postural dizziness participants,50%
CNC(=O)c1cccc(-c2ccc([C@@H](O)[C@H]3O[C@H](CO)[C@@H](O)[C@H](O)[C@@H]3O)c(C)c2)c1,,"male Sprague-Dawley rat, plasma","oral, 10 mg/kg, group mean",,AUC(0-all),93.7 ng·h/mL
O=C(Nc1nc2cccc(-c3ccc(CN4CCS(=O)(=O)CC4)cc3)n2n1)C1CC1,measured: nausea,human rheumatoid arthritis patients,"oral, 300 mg once daily, 4 weeks, regardless of relatedness",,treatment-emergent adverse events,5%

# Excerpt of the above:
SMILES,assay,system,setting,scale,endpoint,result
O=C(/C=C/CCc1ccc(O)cc1)/C=C/c1ccc(O)cc1,,nude mouse MCF7 xenograft,"40 mg/kg, day 0",,body weight,20.1 ± 1.17 g
C=CC(=O)N1CCC(c2ccc(C(N)=O)c(-c3ccc(Oc4ccccc4)cc3)n2)CC1,,relapsed/refractory mantle cell lymphoma patients,"oral, 100 mg twice daily, part, CTCAE v4.03",,TEAE rate,50%
COc1cc(CCC(=O)O)ccc1O[C@@H]1O[C@H](C(=O)O)[C@@H](O)[C@H](O)[C@H]1O,,human plasma,median,,plasma concentration,297 nM
CN(C(=O)n1cnc(-c2ccc[n+]([O-])c2)c1)[C@H]1CC[C@H](O)CC1,,"Wistar rat, pons","oral, 10 mg/kg/day of BIA 10-2474, 24 h, repeated 5 days",,concentration,9.4 ± 0.1 ng/g
